Experimental data gathered from unrelated publications.
Compare with care: the assays were run in different laboratories. Values joined by “and” are separate records of one study, mostly repeats; a detail may differ. ± marks the error that the study gave. Values after ≈ are worked out from the molar mass of the structure shown.
Sequence of UniProt P05181 (whole entry, looked up): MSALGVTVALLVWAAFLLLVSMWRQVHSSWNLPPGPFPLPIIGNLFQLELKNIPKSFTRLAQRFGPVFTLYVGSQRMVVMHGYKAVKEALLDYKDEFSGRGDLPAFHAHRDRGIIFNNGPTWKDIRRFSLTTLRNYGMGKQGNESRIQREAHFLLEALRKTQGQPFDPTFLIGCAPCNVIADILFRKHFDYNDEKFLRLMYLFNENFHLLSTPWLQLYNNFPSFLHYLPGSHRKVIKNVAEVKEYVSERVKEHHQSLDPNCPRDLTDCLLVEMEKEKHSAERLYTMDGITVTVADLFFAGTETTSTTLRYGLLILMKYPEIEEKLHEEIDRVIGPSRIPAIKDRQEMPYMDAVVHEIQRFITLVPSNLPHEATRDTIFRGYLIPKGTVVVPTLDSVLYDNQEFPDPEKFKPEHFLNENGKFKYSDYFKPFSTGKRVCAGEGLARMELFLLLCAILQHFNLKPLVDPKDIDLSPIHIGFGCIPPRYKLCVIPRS

O=C1CC[C@@]2(O)[C@H]3Cc4ccc(O)c5c4[C@@]2(CCN3CC2CCC2)[C@H]1O5
log k protonation constant (phenolate site): 9

CC[C@H](C)[C@H](NC(=O)[C@H](CCCCN)NC(=O)CNC(=O)[C@H](CC(C)C)NC(=O)[C@H](Cc1ccccc1)NC(=O)[C@H](CCCCN)NC(=O)[C@H](CO)NC(=O)[C@H](Cc1ccccc1)NC(=O)[C@H](Cc1c[nH]c2ccccc12)NC(=O)[C@H](CCC(N)=O)NC(=O)[C@@H](NC(=O)[C@H](Cc1ccccc1)NC(=O)CCCCCNC(=O)CN1CCN(CC(=O)O)CCN(CC(=O)O)CCN(CC(=O)O)CC1)C(C)C)C(=O)N[C@@H](CCC(=O)O)C(=O)N1CCC[C@H]1C(=O)N[C@@H](CC(=O)O)C(=O)N[C@H](C(=O)N[C@@H](CO)C(=O)N[C@@H](CCC(N)=O)C(=O)N[C@H](C(=O)N[C@@H](CCC(N)=O)C(=O)N[C@@H](CC(=O)O)C(=O)N1CCC[C@H]1C(=O)N[C@@H](CC(N)=O)C(=O)N[C@@H](CC(=O)O)C(=O)N[C@@H](CCC(N)=O)C(=O)N[C@@H](Cc1ccc(O)cc1)C(=O)N[C@@H](CCC(=O)O)C(=O)N1CCC[C@H]1C(=O)N[C@@H](Cc1ccccc1)C(=O)O)C(C)C)C(C)C [copper-64 labelled]
tissue uptake (C57BL/6 mice, male, tumour-free, stomach; 1 h): 3.24 ± 0.7 %ID/g

CN1Cc2cc(Cl)ccc2-n2c(nnc2C2CCN(c3cccc(F)n3)CC2)C1
concentration (Sprague-Dawley rats male, pituitary; intravenous, 0.03 mg/kg, 60 min): 5.27 ± 1.14 ng/mL

Cc1nc2cccc(OCC(C)(C)C(=O)NC(C)C)c2c(N)c1C(=O)[O-].[Na+]
revertant colonies (Salmonella typhimurium; reverse mutation, plate incorporation; TA98; 0.13 mg/plate, without S9): 26 ± 3 colonies/plate

O=C1CC[C@H]2[C@H]3Cc4ccc(O)c5c4[C@@]2(CCN3CCc2ccccc2)[C@H]1O5
log k protonation constant (phenolate site): 7.96

CC[C@H](C)[C@H](NC(=O)[C@H](CCCCN)NC(=O)[C@H](CCCCN)NC(=O)[C@H](Cc1ccccc1)NC(=O)[C@H](Cc1ccccc1)NC(=O)[C@H](CCCCN)NC(=O)[C@H](CCCCN)NC(=O)[C@H](Cc1ccccc1)NC(=O)[C@H](CCCNC(=N)N)NC(=O)[C@@H](N)CCCCN)C(=O)N[C@@H](CCCCN)C(=O)N[C@@H](CCCCN)C(=O)N[C@@H](CO)C(=O)N[C@H](C(=O)N[C@@H](CCCCN)C(=O)N[C@@H](CCCCN)C(=O)N[C@@H](CCCNC(=N)N)C(=O)N[C@H](C(=O)N[C@@H](CCCCN)C(=O)N[C@@H](CCCCN)C(=O)N[C@@H](CC(C)C)C(=O)N[C@@H](Cc1ccccc1)C(=O)N[C@@H](CCCCN)C(=O)N[C@@H](CCCCN)C(=O)N1CCC[C@H]1C(=O)N[C@@H](CCCNC(=N)N)C(=O)N[C@H](C(=O)N[C@H](C(=O)N1CCC[C@H]1C(=O)N[C@H](C(=O)N[C@@H](CO)C(=O)N[C@H](C(=O)N1CCC[C@H]1C(=O)N[C@@H](Cc1ccccc1)C(=O)O)[C@@H](C)CC)[C@@H](C)CC)[C@@H](C)CC)C(C)C)C(C)C)C(C)C
MIC (Escherichia coli; E24; after heating at 60 °C): 4 µg/mL (≈ 0.948 µM)

Oc1ccc2c3c1O[C@H]1[C@@H](O)CC[C@H]4[C@@H](C2)N(CC2CCC2)CC[C@@]341
log k amino protonation: 9.92

Cc1sc2c(c1C)C(c1ccc(Cl)cc1)=N[C@@H](CC(=O)OC(C)(C)C)c1nnc(C)n1-2
AUC(0-inf) (CD1 mouse, male, plasma; oral, 10 mg/kg): 2090 ng·h/mL

Nc1c2c(nc3sc4c(c13)CCCCC4)CCCC2
IC50 (HEK-293T; cytotoxicity; 3 days): > 10 µM

O=C1NC2(CC2)COc2ncc(F)cc2[C@H]2COCCN2c2ccn3ncc1c3n2
organ-to-body weight ratio (Sprague-Dawley rat, female, brain; oral, 20 mg/kg/day, 4 weeks, end of treatment): 0.609 ± 0.067%

COc1ccc(-n2cc(C(=O)N3C[C@]4(OC(=O)c5ccccc5NC(C)=O)CC[C@H](OC)[C@@]56[C@@H]4C[C@@H]([C@@H]35)[C@@]3(O)C[C@H](OC)[C@H]4C[C@@H]6[C@]3(O)[C@H]4OC)nn2)cc1
concentration (Sprague-Dawley rat, plasma; intravenous, 2 mg/kg, 2 h): 5.98 ng/mL

NC[C@]1(CC(=O)O)CC[C@@H]([18F])CC1
SUV (PET; rhesus monkey, brain; intravenous, 13 min, baseline scan, after decrease): 0.25

O=C1CC[C@@]2(O)[C@H]3Cc4ccc(O)c5c4[C@@]2(CCN3CCc2ccccc2)[C@H]1O5
log tautomerization constant: 1.81

Cc1cc(-c2ccc3ccccc3c2)nnc1NCCN1CCN(C)CC1
half-life (Cytochrome P450 2E1 (CYP2E1, Homo sapiens, UniProt P05181); substrate; recombinant enzyme; 1000 nM): > 30 min

CN1CC[C@]23c4c5ccc(O)c4O[C@H]2[C@H](O)CC[C@@]3(O)[C@H]1C5
log k protonation constant (phenolate site): 9.29

CC(=O)NCCCC[C@@H]1NC(=O)[C@H](Cc2c[nH]c3c(C)cccc23)NC(=O)[C@H]([C@@H](C)O)NC(=O)[C@H](CC(N)=O)NC(=O)[C@@H](NC(C)=O)C(C)(C)SSC(C)(C)[C@@H](C(=O)N[C@@H](Cc2ccc(OCCN)cc2)C(=O)N[C@@H](Cc2ccc3ccccc3c2)C(=O)NC2(C(=O)N[C@@H](CCC(=O)O)C(=O)N[C@@H](CC(N)=O)C(=O)N[C@@H](Cc3cccnc3)C(=O)N(C)CC(N)=O)CCOCC2)NC1=O
fraction unbound (human alpha-1-acid glycoprotein 0.07%; equilibrium dialysis; 0.1 µM): 89.4 ± 1.9%

Oc1ccc2c3c1OC1C(O)C=CC4C(C2)N(CC2CCC2)CCC341 (stereo not shown)
log k amino protonation (phenolate protonated): 8.75

Cc1ccc(NS(=O)(=O)c2c(C(=O)N3CCCCCC3)c(C)n(C)c2C)c(Cl)c1
viability (HaCaT; 11.11 µM, 60 h): 102% and 97%

C[C@H]1[C@@H](OCc2cn(-c3cc4ccc(O)cc4oc3=O)nn2)O[C@@H]2O[C@@]3(C)CC[C@H]4[C@H](C)CC[C@@H]1[C@@]24OO3
uptake inhibition (Plasmodium berghei; flow cytometry, item: compound uptake in parasites; infected mouse red blood cells; 3 µM, 1 h, together with: dihydroartemisinin added 30 min before): 58.8%
